Results from different studies.
A part holds a random share of what one study measured.

Sample 1
Target: Sal-like protein 4, full length isoform A (SALL4, Homo sapiens, UniProt Q9UJQ4, residues 1-1053)
UniProt Q9UJQ4, sequence (whole entry, looked up): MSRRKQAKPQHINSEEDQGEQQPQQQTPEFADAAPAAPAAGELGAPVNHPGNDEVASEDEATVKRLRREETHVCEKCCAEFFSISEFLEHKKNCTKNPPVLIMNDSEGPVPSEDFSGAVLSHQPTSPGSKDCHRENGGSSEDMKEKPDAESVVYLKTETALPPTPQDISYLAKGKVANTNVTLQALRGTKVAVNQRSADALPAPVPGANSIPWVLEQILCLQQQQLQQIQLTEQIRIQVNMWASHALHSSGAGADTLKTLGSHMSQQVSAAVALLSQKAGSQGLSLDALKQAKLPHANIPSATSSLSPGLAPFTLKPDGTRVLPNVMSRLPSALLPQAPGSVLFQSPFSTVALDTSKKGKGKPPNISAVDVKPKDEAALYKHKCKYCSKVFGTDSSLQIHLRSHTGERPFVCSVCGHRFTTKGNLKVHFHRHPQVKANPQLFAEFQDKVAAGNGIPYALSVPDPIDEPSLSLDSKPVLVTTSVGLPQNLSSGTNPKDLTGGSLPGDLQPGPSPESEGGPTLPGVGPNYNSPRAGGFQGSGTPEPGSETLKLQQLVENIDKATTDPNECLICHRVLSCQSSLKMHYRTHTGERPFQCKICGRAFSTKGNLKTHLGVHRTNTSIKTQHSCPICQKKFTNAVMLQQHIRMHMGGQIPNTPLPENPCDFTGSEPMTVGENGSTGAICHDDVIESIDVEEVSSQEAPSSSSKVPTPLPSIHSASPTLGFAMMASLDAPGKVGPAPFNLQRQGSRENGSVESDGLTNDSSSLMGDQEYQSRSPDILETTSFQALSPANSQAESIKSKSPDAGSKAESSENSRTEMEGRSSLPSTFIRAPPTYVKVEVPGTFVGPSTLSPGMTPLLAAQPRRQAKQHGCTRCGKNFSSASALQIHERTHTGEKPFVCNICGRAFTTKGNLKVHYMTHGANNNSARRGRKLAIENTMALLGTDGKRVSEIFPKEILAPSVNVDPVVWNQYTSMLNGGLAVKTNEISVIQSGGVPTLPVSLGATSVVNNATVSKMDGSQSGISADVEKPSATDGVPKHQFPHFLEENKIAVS
Method: universal PBM
Molecule type: double-stranded DNA, one strand shown
Matrix: in vitro
Tested at: 600 nM
Setting: 8-mer, flanks averaged, mean of replicates
Reading: higher = stronger binding
For `AGTAGACT`, the E-score was 0.0627.
The E-score of `AGTAGCAA` is reported as 0.152.
`AACAACTA` has an E-score of 0.154.
For `CTCACTCA`, the E-score was -0.0328.
With `GCCTCGAC` the E-score was -0.184.
`GCCGAAAC` has an E-score of -0.205.
`TGACTGCA` gave an E-score of -0.0528.
The E-score of `ATATCGGG` is reported as 0.0615.
`GCCCATTA` has an E-score of -0.0206.
With `GCTACAGC` the E-score was -0.196.
The E-score of `TCCGCACA` is reported as -0.0433.
With `ACTTCGCA` the E-score was -0.0277.
With `CATCCCGC` the E-score was -0.217.
`CCTTGGGC` gave an E-score of -0.351.
`ATCAGACG` has an E-score of -0.0735.
`CGTACGTA` has an E-score of 0.0711.
`AGAAAAGA` gave an E-score of 0.139.
`ACTCCCGC` gave an E-score of -0.0212.
For `CTGGTACC`, the E-score was -0.314.
The E-score of `ACAGACCA` is reported as -0.117.
The E-score of `AGCTAAGC` is reported as -0.271.

Sample 2
Target: RNA binding protein fox-1 homolog 2, RRM domain, GST-SBP tag (RBFOX2, Homo sapiens, UniProt O43251-10, residues 100-194)
Method: RNA Bind-n-Seq
Molecule type: RNA
Matrix: in vitro
Tested at: 365 nM
Setting: natural RNA segment, single round, ends assumed
Reference: no-protein control
Reading: higher = stronger binding
Construct (chain): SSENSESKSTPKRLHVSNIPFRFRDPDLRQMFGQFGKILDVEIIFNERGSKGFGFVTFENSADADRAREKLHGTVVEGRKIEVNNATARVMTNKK
`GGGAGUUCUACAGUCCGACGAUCACAGUGUAAAUGUUUAUAUGGACACAGAACAGCAUCACUAAAUAAAGCCUUUCUACUUGUGGGUGCAAUAGAUUCCUUCUUUUUCCUUUGCAGUGUCAUCUUGAUUGUAUUGGAAUUCUCGGGUGCCAA` — result for “RBNS enrichment (R)”: 0.768.
For `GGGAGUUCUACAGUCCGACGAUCUCAAUUCUAUGGUCACUCUGAAUUUUCAUGUCAUUAAUCACAUAAAAAUUGAUAAUACCUCAUUCUGUAUUACAAUAUGAUUUUAUUUUGCCAAAGGCAAGACACCUAUAUGGAAUUCUCGGGUGCCAA`, “RBNS enrichment (R)” read 0.547.
`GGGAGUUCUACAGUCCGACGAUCCAAGUGGGUGUGGAUAAUGCCAUGGCCAGCAGGGGGCACUGUUGAGGCGGGUGCCUUUCCACCUUAAGUUGCUUAUAGUAUUUAAGAUGCUAAAUGUUUUAAUCAAGAGAUGGAAUUCUCGGGUGCCAA` — result for “RBNS enrichment (R)”: 0.355.
Under “RBNS enrichment (R)”, `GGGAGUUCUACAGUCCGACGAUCUCUUACAGAAAAGUCCAUUUAAAAGUGAUCAUUUGUAAGACCAAAAUAUAAAUAAAAAGUUUCAAAAUCUAUCUGAAUUUGGAAUUCUUCUGGUUUGUUCUUUCAUGUUUUGGAAUUCUCGGGUGCCAA` is recorded as 0.643.
`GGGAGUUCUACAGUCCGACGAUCCAAAGCUGUUUUGCAGCUGUUUUCCCUUAAAGAUGUCCUGUUGCUUUAGUGAUAUUUAGACCCCUCUCAGUUAAGAAAUGCUUAGAUUAAAAAAAAAAAAUUACGUAGGAUGGAAUUCUCGGGUGCCAA` — result for “RBNS enrichment (R)”: 0.789.
`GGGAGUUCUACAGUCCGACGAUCGAGCGGCUCCUGAGGAGAGCCGCCAAGGCUGCUCGCCUUCUCCGUGGCUUCCGCAGCUACCGUCUGCACGGUGAGAGGGCACGGGCACACGGUUCGGGCUGGCGUGCAGCUGGAAUUCUCGGGUGCCAA` — result for “RBNS enrichment (R)”: 0.552.
Under “RBNS enrichment (R)”, `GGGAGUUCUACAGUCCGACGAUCUAUUUGCAUCAGUAUAAUAUAUAUCAGUGUGUCAUACAGAAAGAUAUGCUUCUGUAAUAUGAAAUAGGUUAUUUGAUAACUGAGAAACUUUAAAUGUAUCAUGUGAGCAUUGGAAUUCUCGGGUGCCAA` is recorded as 0.624.
For `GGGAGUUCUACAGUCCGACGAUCUUUCUCUGUAGAGCAGCCACACGUUGUAUAAACAUAAACUGUAUGUGCAGUUAUUUAAAUUUGUUUCUGUCAAAUUAAUCAUUUUUGUUGGACGAUUCAGUGGCGGGGGGUGGAAUUCUCGGGUGCCAA`, “RBNS enrichment (R)” read 0.721.

Sample 3
Target: RING finger protein unkempt homolog, zinc fingers 1-6, GST-SBP tag (UNK, Homo sapiens, UniProt Q9C0B0, residues 30-357)
Method: RNA Bind-n-Seq
Molecule type: RNA
Matrix: in vitro
Tested at: not given
Setting: RNA with constant flanks, ends assumed
Reference: input RNA pool
Reading: higher = stronger binding
Construct (chain): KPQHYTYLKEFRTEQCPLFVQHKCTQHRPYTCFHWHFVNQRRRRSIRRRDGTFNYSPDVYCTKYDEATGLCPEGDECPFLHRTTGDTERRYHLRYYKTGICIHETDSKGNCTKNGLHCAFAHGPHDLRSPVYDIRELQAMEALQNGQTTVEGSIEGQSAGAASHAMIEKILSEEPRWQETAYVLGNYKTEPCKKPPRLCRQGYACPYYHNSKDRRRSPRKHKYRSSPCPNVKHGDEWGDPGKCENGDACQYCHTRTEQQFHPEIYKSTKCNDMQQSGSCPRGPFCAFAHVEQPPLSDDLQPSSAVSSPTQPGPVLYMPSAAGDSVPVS
`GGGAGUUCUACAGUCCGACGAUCGUCUACCUUAACCUGGUGCUGGACUAUGUUCCGGAGACAGUGUACAGAGUCGCCAGACACUACCGUCGAGCCAAGCAGACACUCCCUGUGAUCUAUGUCAAGUUGUAUAUGUAUCAGCUGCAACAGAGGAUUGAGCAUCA` gave a bound/input enrichment of 0.0448 ratio.
`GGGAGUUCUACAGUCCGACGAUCGUAUAUCAAGGAGUGAAGAAAGAUGGCUUUUUACAACCUCAUUUUUUGGCAGAACAGGAUACCGUUAUCAUUACCUAUGAUGUACUGCGUUCAGAAUUAAAUUAUGUCGAUAUCCCACAUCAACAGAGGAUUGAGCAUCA` has a bound/input enrichment of 0.13 ratio.
`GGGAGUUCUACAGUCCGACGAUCUGGCAUACAGACCAGUUUUAGGACUGGUAAUCCAACAGGGACUUACCAGAACGGUUAUGACCGCACUCAGCAAUAUGGAAGUAAUGUUGCAAAUAUGCACAAUGGUAUGAACCAACAGGCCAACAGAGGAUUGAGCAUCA` has a bound/input enrichment of 0.107 ratio.
`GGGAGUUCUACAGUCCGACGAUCUAAAAUUUGCAAGUGUAUGGAGGACUAACCUCACUGACAGGAGGGGAUUCCACCUGGGAUCCGCUUUAUGAUUGUUGAUUGCCUAUUUUGCCAUUUAUAAACUGAAAGAAGGCACUAAAGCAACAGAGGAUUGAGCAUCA` gave a bound/input enrichment of 0.18 ratio.
With `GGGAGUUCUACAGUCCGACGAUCUUGGAUUCAUUAGCAGAAAGUCCUGAAUCAGAUUUUAUGUCUGCUGUGAAUGAGUUUGUAACCGAAGAAAAUUUGUCGUCUCCUAAUCCUAUAAGUGAUCCACAAAGCCCAGAAAUGAUGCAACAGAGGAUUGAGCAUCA` the bound/input enrichment was 0.305 ratio.
For `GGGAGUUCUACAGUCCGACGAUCUGGGGGAGUUCUAAAAACAGGUGGUAUCUGUUUUUAAUUAUAAAAUAAUAAACAUUUACCACCGAACAGUUACAAAGACAUGAAAAACACCUAAAACUCUACCACACACCUAGCCUUCCCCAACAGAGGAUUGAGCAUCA`, the bound/input enrichment was 0.459 ratio.
With `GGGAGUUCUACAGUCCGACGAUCAACAGUAGUACAGCUAUUGGGAUCAGAUGUAAAGAUGGUGUUGUGUUUGGGGUAGAAAAACCCGUCCUUUCUAAACUUUAUGAAGAAGGCUCCAAUAAACGUCUUUUUAAUGUUGAUCGACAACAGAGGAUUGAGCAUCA` the bound/input enrichment was 0.225 ratio.
`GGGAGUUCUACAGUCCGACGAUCGGGCUGUGUAGAGUAGGGCCCUGUUCUCCUUAGGAUGUUGCUUCUUGAUUUUUUUUUUUUUUCCGGGGUGGGUCAGGGUUGUGACACACCAGCCCAGGUGAGAGCUGCUGCGGGUCACCUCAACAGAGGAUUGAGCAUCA` has a bound/input enrichment of 5.95 ratio.

Sample 4
Target: Histone acetyltransferase KAT6A, winged helix 1, GST fusion (KAT6A, Homo sapiens, UniProt Q92794, residues 1-85)
Method: protein binding microarray
Molecule type: double-stranded DNA, one strand shown
Matrix: in vitro
Tested at: not given
Setting: 8-mer, flanks averaged, mean of 2 arrays, mostly near background
Reference: not given
Reading: higher = stronger binding
Construct (chain): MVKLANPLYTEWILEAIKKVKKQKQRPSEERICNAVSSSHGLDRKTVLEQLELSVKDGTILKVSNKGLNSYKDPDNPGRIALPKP
With `AAGTTCTG` the E-score was -0.168.
For `ACGCCCAG`, the E-score was -0.0688.
`AGCTATAA` gave an E-score of -0.107.
With `AGACCCCC` the E-score was 0.153.
The E-score of `CATGCCGC` is reported as 0.397.
With `CAAGGCAC` the E-score was -0.273.
With `AGCCCGGC` the E-score was 0.309.
For `CCGGTCGA`, the E-score was 0.198.
For `AGTAATTA`, the E-score was -0.14.
For `ATCAATGC`, the E-score was 0.0172.
With `TGCTGAAA` the E-score was -0.151.
With `CAAGCAGA` the E-score was -0.121.
With `ACTCCACC` the E-score was -0.115.
With `TTAGAGAA` the E-score was -0.115.
For `CTTCGTCC`, the E-score was -0.0209.
With `GACACCGC` the E-score was 0.261.
`ACATTTGC` has an E-score of -0.00698.
With `ATAACTAT` the E-score was -0.0624.
For `AATTCCGC`, the E-score was 0.153.
For `ATACTGTA`, the E-score was -0.0615.
`AACGCCTC` has an E-score of 0.0926.
`AGGTAGTG` gave an E-score of -0.0423.

For quick reference, copied from above (sample 1):
The E-score of `ATATCGGG` is reported as 0.0615.
`GCCCATTA` has an E-score of -0.0206.
With `GCTACAGC` the E-score was -0.196.
The E-score of `TCCGCACA` is reported as -0.0433.
With `ACTTCGCA` the E-score was -0.0277.
With `CATCCCGC` the E-score was -0.217.
`CCTTGGGC` gave an E-score of -0.351.
